Results gathered from unrelated publications.
Every numbered part comes from another study and shows a few of its results, in no order.

Series 1 — method: RNA Bind-n-Seq; molecule type: RNA; medium: in vitro; tested at: 20 nM; setting: 6-mer, flanks averaged, single round; added: 150 mM LiCl; relative to: input library; reading: higher = stronger binding; endpoint: 6-mer enrichment (R)
Target: TAR DNA-binding protein 43, full length, His tag (TARDBP, Homo sapiens, UniProt Q13148, residues 1-414)
GUCGAG: 1.04
UCCAUU: 0.946
GGUGCG: 1.32
CAAUAU: 0.934
AUGCGA: 0.929
UCUGAC: 0.838
UCUCGC: 0.831
GAGCCC: 1.02
CGGCAA: 0.884
UUUGUU: 1.51
AGUUGG: 1.07
UACCAA: 0.839
UCCUGC: 0.9
ACGGCU: 0.867
UCCACG: 0.858
UGCAAC: 0.87
UUCCGA: 0.825
AUCAGA: 0.776
UUUAGG: 1.06
CACGUG: 0.943
CCUUGG: 1.11
GAUACA: 0.821
CUGGGU: 1.05
AACUGG: 0.895

Series 2 — method: universal PBM; molecule type: double-stranded DNA, one strand shown; medium: in vitro; tested at: not given; reading: higher = stronger binding; endpoint: E-score
Target: Sal-like protein 4, full length isoform B (SALL4, Homo sapiens, UniProt Q9UJQ4-2, residues 1-616)
Setting: 8-mer, flanks averaged, mean of replicates
CGTCCCAC: -0.136
ATTGAGTG: 0.082
AGTGGGCG: -0.17
GCCATCGC: -0.192
TCCGGTCA: -0.318
AAAATACG: 0.206
CTTCACCC: -0.0356
CCTATATC: 0.18
GAGCGATA: 0.0422
CCAGGGCC: -0.43
ATCAAGCC: -0.0861
GATACCGC: -0.0805
ACGGTTTA: -0.0412
CCATCCGC: -0.184
CTTCGGCC: -0.0838
ATAAGATC: 0.12
TACTATGA: 0.235
ATTCTACA: 0.0981
AGAGGAAG: -0.186
CTTCAACC: -0.0223
CGCGAGTA: -0.0195
AAGACCAA: 0.00188
AGAGTGCT: -0.0348
ACGTGGAT: 0.0575
CCTAATAA: 0.324

Series 3 — method: RNA Bind-n-Seq; molecule type: RNA; medium: in vitro; tested at: 365 nM; relative to: no-protein control; reading: higher = stronger binding; endpoint: RBNS enrichment (R)
Target: RNA binding protein fox-1 homolog 2, RRM domain, GST-SBP tag (RBFOX2, Homo sapiens, UniProt O43251-10, residues 100-194)
Setting: natural RNA segment, single round, ends assumed
Shared flanks, not repeated: GGGAGUUCUACAGUCCGACGAUC … UGGAAUUCUCGGGUGCCAA
Construct (chain): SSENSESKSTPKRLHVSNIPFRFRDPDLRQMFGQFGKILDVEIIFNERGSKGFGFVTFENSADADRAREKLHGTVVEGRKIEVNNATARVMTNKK
ACUAGCUGUGCAGAAGAGCAGAUAACUAGCGCUGCUCUGGCAUUAAUCCCAGGAACCACUAGCAGUAGUGGGGCGCCGCCAAUCUAACAUGAGCACAGGUGCUUCAUGAC: 0.223
AGGGCCUAAGGUCCACUGGACAGUUGGGAAAACACCUGACCACCAUUUAAGGACUCUAAGCCAGAAUGGAAAAUUCACCAGGACUCCAUUCUUAAGCCUAUGCGAGUCCC: 0.258
AAGUUGAAAAUGGGACCACAGGGGCACAGGGCUACUGACCCUCACAGGGCAUGCCAGCGUUAACACCACUUUGAGAGACCAAUGGCAAGAAAUGCUGUCUCUUGUGCAUU: 0.544
CAAGGGCGCAAGAGUAGCGGUCCAAGCCUGCAACUCAUCUUUCAUUAAAGGCUUCUCUCUCACCAGCCAUCCGAUGUCUGUCUCCUCUGGGAUCUGGAAGUGGGUGGAGA: 0.382
AAGGGGUUGGUUGAGGUGGAAGCCCUCCUUCCACGGAUCCAUGUAGCAGGACUGAAUUGUCCCCAGUUUGCAGAAAAGCACCUGCCGACCUCGUCCUCCCCCUGCCAGUG: 0.589
CUUGGGAAUGCUGCGCUCUCUGUAGUUUCCAUCAUUGGUGCAGUUCGAACGAAUGAGUAGAGUUCAGAGGUCUUCGUGUUCACAUUUAAAACUAGAUAAAUGACCUCAUU: 0.537
GCGGAGGGUUGGGGGCAUGGUCUGCAGGCUCAUCUGUGUCCGCCUUUCACUCCACUAAUGCUGUCUCAGUGUUUUCUCUCUCUCUCUUUCGAGCUUGCACUCCGGUACCC: 0.411
AACGAGGCCCAAGAAAAAAUGGAAGCUGGGGGCAGAGAGUCCAGGAGGCCCCCAUGCUGUCUGAGGGGAGGCCGGCAUAGCCCCUCCUCGACUGUCGCCUGAGCAGCUGA: 0.637
AUCAGAGGCAGGCUUGUCUUUGUAGAGAAUUACAAGCCUGCUUGAGCUACAGAGUGUGAUCCUGUCAAAAUCCCCUGAGAAAUAUUCUUAGGGGCUCACAACCAAGGUCC: 0.272
GCUAGGAUUGAUAUAGGAAUCAACCUAUGUGAUUUGCUUUAGGAGAAAUUAAAAGGUAUAUUCUUAAGAUAUAUUAUAUUUUGAUGCUAAUUCUGUUCUGGGGAGCAUCU: 0.514
UUAAGCCGUGGAAAAUGUUCUUGAUCAUUUGCAGUUAAGGACUUUAAAUAAAUCAAAUGUUAACAAAGAGCAUUUCUGUUAUUUUUUUUCACUUAACUAAAUCCGAAGUG: 0.315
AUCAGUGUUUUCCGUGUGAAUUUCCAACCUUGCACCCCGUUCCUUGUCCUUACUCUUGACUCCAUCCAGAAAAGAACCAGCAUCUGCAAACGCCAUGGGUGCCGUCAGCG: 0.592

Series 4 — method: protein binding microarray; molecule type: double-stranded DNA, one strand shown; medium: in vitro; tested at: not given; relative to: not given; reading: higher = stronger binding; endpoint: E-score
Target: Histone acetyltransferase KAT6A, both winged helices, GST fusion (KAT6A, Homo sapiens, UniProt Q92794, residues 1-181)
Setting: 8-mer, flanks averaged, mean of 2 arrays, mostly near background
Residues (chain): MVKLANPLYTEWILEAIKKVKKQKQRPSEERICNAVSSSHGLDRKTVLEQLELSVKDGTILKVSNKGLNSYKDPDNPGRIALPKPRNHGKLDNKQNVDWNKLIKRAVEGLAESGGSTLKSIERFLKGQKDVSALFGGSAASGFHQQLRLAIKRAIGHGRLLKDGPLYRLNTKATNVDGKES
AGGTGTTG: -0.0139
CAAGACGA: -0.0666
AGTGAACA: -0.1
CGACGTTA: 0.113
CGACGGAC: 0.277
AAAATTCC: -0.0135
AAAATATA: -0.0254
GCTGCTGA: -0.0679
CAATGATA: -0.0817
ATAGTCTA: -0.0402
ACTTATCC: -0.00756
GGGCACCA: -0.0887
ACTTGTGC: -0.106
AGTTGCCA: -0.0934
ATGAGCTC: -0.113
GCAATCGC: 0.149
CAACCAAA: -0.0294
ATCTCTGA: -0.193
GCCGGTTA: 0.135
GTAACTAA: -0.0382
GGCTAACC: 0.0204
AGGCCCAC: -0.164

Series 5 — method: RNA Bind-n-Seq; molecule type: RNA; medium: in vitro; tested at: 1 µM; setting: whole 134-nt RNA, ends assumed; added: 150 mM KCl; relative to: input library; reading: higher = stronger binding; endpoint: log2 enrichment
Target: Ras GTPase-activating protein-binding protein 1, RRM domain (G3BP1, Homo sapiens, UniProt Q13283)
Sequence of UniProt Q13283 (whole entry, looked up): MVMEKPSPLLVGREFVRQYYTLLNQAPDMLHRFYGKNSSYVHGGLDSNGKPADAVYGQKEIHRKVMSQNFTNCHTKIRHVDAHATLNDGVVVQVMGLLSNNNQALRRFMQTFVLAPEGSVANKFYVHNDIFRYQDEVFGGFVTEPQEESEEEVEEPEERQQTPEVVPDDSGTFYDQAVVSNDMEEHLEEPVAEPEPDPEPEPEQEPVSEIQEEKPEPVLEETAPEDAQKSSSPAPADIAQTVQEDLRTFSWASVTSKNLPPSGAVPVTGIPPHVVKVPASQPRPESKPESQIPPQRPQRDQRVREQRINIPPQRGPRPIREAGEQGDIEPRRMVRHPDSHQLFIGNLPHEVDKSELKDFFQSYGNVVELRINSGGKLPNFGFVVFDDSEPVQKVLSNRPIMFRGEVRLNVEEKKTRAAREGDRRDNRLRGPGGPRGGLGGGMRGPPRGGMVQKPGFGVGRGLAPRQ
Shared flanks, not repeated: GGGAGUUCUACAGUCCGACGAUC … UGGAAUUCUCGGGUGUCAAGG
UUCCUCAAGUCCUGUGCUACACAUCGUAUGUACCGAAUCGGUGGUGGUGGGAAAGUAUUAUGUUACGCCGUUCGGAUCUGCACUUCCAGC: -0.139
UAACUGUAGAGGAGGAUCUGAUGGAUAUGGCAGUGGACGUGGAUUUGGGGAUGGCUAUAAUGGGUAUGGAGGAGGACCUGGAGGUGGCAA: -0.429
CCUGUGCUACACAUCGUAUGUACCGAAUCGGAAAAAAAGGGAAAAAAAGGGGAAAAAAAGGAAAGUAUUAUGUUACGCCGUUCGGAUCUG: -0.00719
UGGGAGGUGGAUUUUGUUUAUUUUUUUAGCUCAUUUCCAGGGGUGGGAAUUUUUUUUUUAUAUGUGUCAUGAAUAAAGUUGUUUUUGAAA: 1.84
UGGAGCACAGGGCGAGCUCUCCUCCGCCCUGCAGCCUCAGGUAAGGAUCCGGACCUUCACUGCUGCCCCAACUGGGGCUCCUCAGCUCGG: -0.62
UCACCUGUUUACAGUGAAUCAGACGUCCCAAUAGAUGUGGAGACGGUCACAUCAACGCCUAUGCCACUCUAUGACAAUCAGAAGGCACGC: -0.185
AGUCCUGUGCUACACAUCGUAUGUACCGAAUCGGGUUUGGGUUUGGGAAAAAAAGGGAAAGUAUUAUGUUACGCCGUUCGGAUCUGCACU: 0.243
CUGUGCUACACAUCGUAUGUACCGAAUCGGGGAAAAAGGGGAAAAAAAGGGGUUUUUGGGGAAAGUAUUAUGUUACGCCGUUCGGAUCUG: 0.958
UCAAGUCCUGUGCUACACAUCGUAUGUACCGAAUCGGGGCCGGGGCCGGGCCGGGAAAGUAUUAUGUUACGCCGUUCGGAUCUGCACUUC: -1.16
AAGUCCUGUGCUACACAUCGUAUGUACCGAAUCGGGAAAAAGGAAAAAGGAAAAAGGAAAGUAUUAUGUUACGCCGUUCGGAUCUGCACU: 0.034
AGUCCUGUGCUACACAUCGUAUGUACCGAAUCGGGUUUUUGGGUUUUUGGGUUUUUGGAAAGUAUUAUGUUACGCCGUUCGGAUCUGCAC: -0.137
AGUCCUGUGCUACACAUCGUAUGUACCGAAUCGGGCCCCGGGCCCCGGGGCCCCGGGGAAAGUAUUAUGUUACGCCGUUCGGAUCUGCAC: -0.668
CAAGUCCUGUGCUACACAUCGUAUGUACCGAAUCGGGGUUUGGGGAGGGGUGGGGAAAGUAUUAUGUUACGCCGUUCGGAUCUGCACUUC: 0.972
AAGUCCUGUGCUACACAUCGUAUGUACCGAAUCGGGGUUUGGGGUGGGGAAAGGGGAAAGUAUUAUGUUACGCCGUUCGGAUCUGCACUU: 0.803

A few entries again (series 5):
UAACUGUAGAGGAGGAUCUGAUGGAUAUGGCAGUGGACGUGGAUUUGGGGAUGGCUAUAAUGGGUAUGGAGGAGGACCUGGAGGUGGCAA: -0.429
CCUGUGCUACACAUCGUAUGUACCGAAUCGGAAAAAAAGGGAAAAAAAGGGGAAAAAAAGGAAAGUAUUAUGUUACGCCGUUCGGAUCUG: -0.00719
UGGGAGGUGGAUUUUGUUUAUUUUUUUAGCUCAUUUCCAGGGGUGGGAAUUUUUUUUUUAUAUGUGUCAUGAAUAAAGUUGUUUUUGAAA: 1.84
UGGAGCACAGGGCGAGCUCUCCUCCGCCCUGCAGCCUCAGGUAAGGAUCCGGACCUUCACUGCUGCCCCAACUGGGGCUCCUCAGCUCGG: -0.62
UCACCUGUUUACAGUGAAUCAGACGUCCCAAUAGAUGUGGAGACGGUCACAUCAACGCCUAUGCCACUCUAUGACAAUCAGAAGGCACGC: -0.185
AGUCCUGUGCUACACAUCGUAUGUACCGAAUCGGGUUUGGGUUUGGGAAAAAAAGGGAAAGUAUUAUGUUACGCCGUUCGGAUCUGCACU: 0.243
CUGUGCUACACAUCGUAUGUACCGAAUCGGGGAAAAAGGGGAAAAAAAGGGGUUUUUGGGGAAAGUAUUAUGUUACGCCGUUCGGAUCUG: 0.958
